Published values pooled from the literature.
Protocols differ between the studies behind these lines. ± marks the error that the study gave.
Organism: Trypanosoma cruzi

With `C#CCO[C@H]1C[C@H]2[C@@H](C)C[C@H]3OC(=O)C(=C)[C@H]3C[C@]2(C)[C@H]1OCC#C` the selectivity index was 25.2 (epimastigote; relative to: CC50 splenocytes over IC50 epimastigotes).
With `O=C1CNC(=S)N1` the selectivity index was 6.74 (intracellular amastigotes; relative to: LLC-MK2 CC50 over amastigote IC50).
With `O=C(CC1CCCCC1)Nc1cc2nc(-c3ccccc3)cn2cn1` the EC50 was 6.27 µM (3T3 host cells, Tulahuen beta-galactosidase; 6 days).
For `CCCCCCCC1=CC(=O)c2ccccc2S1(=O)=O`, the EC50 was 32 µM (intracellular amastigote growth; U-937, Tulahuen, β-galactosidase transfected; 72 h).
For `C[n+]1cc2c3c(ccc2c2ccc4cc5c(cc4c21)OCO5)OCO3`, the EC50 was 0.4 µM (U-2 OS host cells, Y; 72 h, intracellular amastigotes, together with: FBS 10%).
The inhibition of `C=C1C(=O)O[C@@H]2C[C@H](C)[C@@H]3C[C@H](O)[C@H](O)[C@@]3(C)C[C@H]12` is reported as 33 to 99% (cell growth, thymidine uptake; epimastigotes; 1.5 to 50 µg/mL, range over concentrations).
`O=C(Cc1ccccc1)Nc1cc2nc(-c3ccccc3)cn2cn1` gave an EC50 of 14.2 µM (3T3 host cells, Tulahuen beta-galactosidase; 6 days).
With `C=C1C(=O)O[C@@H]2C[C@H](C)[C@@H]3C[C@H](OCc4cn(Cc5ccccc5)nn4)[C@H](O)[C@@]3(C)C[C@H]12` the selectivity index was 4.6 (epimastigote; relative to: CC50 splenocytes over IC50 epimastigotes).
The inhibition of `NNc1nnc(Cl)c2ccccc12` is reported as 10.2% (parasite growth; 25 µM, epimastigote).
With `C=C1C(=O)O[C@@H]2C[C@H](C)[C@@H]3C[C@H](OCc4cn(Cc5ccccc5)nn4)[C@H](OCc4cn(Cc5ccccc5)nn4)[C@@]3(C)C[C@H]12` the selectivity index was 17.5 (epimastigote; relative to: CC50 splenocytes over IC50 epimastigotes).
With `Cc1cc(C)n2cc(-c3ccccc3)nc2c1` the EC50 was 7.2 µM (3T3 host cells, Tulahuen beta-galactosidase; 6 days).
`Oc1ccccc1/C=C/c1ccc2ccccc2n1` has an activity ratio of 2.5 (Tulahuen, intracellular amastigotes; concentration not given; relative to: compound over benznidazole).
The EC50 of `Cc1ccc2nc(-c3ccccc3)c(CN3CCOCC3)n2c1` is reported as 13.4 µM (3T3 host cells, Tulahuen beta-galactosidase; 6 days).
For `O=c1cc[s+]([O-])c2ccc(Cl)cc12` (single isomer, unassigned; (+)), the EC50 was 87.3 µM (intracellular amastigote growth; U-937, Tulahuen, β-galactosidase transfected; 72 h).
`Cc1ccc2nc(-c3ccccc3)c(CN3CCCC3)n2c1` — result for activity: “inactive” (parasite growth; Tulahuen beta-galactosidase; concentration not given).
`COc1ccc(Nc2c(C#N)cnc3ccc(Cl)cc23)cc1` gave an IC50 of 11.7 ± 4 µM (viability, resazurin; trypomastigotes, Y; 24 h, RPMI medium, together with: 30 µM heme).
